# Assay results from different studies.
# Each line is one published result; not all experiments were run side by side.
# UniProt P21675, sequence (whole entry, unmodified, looked up): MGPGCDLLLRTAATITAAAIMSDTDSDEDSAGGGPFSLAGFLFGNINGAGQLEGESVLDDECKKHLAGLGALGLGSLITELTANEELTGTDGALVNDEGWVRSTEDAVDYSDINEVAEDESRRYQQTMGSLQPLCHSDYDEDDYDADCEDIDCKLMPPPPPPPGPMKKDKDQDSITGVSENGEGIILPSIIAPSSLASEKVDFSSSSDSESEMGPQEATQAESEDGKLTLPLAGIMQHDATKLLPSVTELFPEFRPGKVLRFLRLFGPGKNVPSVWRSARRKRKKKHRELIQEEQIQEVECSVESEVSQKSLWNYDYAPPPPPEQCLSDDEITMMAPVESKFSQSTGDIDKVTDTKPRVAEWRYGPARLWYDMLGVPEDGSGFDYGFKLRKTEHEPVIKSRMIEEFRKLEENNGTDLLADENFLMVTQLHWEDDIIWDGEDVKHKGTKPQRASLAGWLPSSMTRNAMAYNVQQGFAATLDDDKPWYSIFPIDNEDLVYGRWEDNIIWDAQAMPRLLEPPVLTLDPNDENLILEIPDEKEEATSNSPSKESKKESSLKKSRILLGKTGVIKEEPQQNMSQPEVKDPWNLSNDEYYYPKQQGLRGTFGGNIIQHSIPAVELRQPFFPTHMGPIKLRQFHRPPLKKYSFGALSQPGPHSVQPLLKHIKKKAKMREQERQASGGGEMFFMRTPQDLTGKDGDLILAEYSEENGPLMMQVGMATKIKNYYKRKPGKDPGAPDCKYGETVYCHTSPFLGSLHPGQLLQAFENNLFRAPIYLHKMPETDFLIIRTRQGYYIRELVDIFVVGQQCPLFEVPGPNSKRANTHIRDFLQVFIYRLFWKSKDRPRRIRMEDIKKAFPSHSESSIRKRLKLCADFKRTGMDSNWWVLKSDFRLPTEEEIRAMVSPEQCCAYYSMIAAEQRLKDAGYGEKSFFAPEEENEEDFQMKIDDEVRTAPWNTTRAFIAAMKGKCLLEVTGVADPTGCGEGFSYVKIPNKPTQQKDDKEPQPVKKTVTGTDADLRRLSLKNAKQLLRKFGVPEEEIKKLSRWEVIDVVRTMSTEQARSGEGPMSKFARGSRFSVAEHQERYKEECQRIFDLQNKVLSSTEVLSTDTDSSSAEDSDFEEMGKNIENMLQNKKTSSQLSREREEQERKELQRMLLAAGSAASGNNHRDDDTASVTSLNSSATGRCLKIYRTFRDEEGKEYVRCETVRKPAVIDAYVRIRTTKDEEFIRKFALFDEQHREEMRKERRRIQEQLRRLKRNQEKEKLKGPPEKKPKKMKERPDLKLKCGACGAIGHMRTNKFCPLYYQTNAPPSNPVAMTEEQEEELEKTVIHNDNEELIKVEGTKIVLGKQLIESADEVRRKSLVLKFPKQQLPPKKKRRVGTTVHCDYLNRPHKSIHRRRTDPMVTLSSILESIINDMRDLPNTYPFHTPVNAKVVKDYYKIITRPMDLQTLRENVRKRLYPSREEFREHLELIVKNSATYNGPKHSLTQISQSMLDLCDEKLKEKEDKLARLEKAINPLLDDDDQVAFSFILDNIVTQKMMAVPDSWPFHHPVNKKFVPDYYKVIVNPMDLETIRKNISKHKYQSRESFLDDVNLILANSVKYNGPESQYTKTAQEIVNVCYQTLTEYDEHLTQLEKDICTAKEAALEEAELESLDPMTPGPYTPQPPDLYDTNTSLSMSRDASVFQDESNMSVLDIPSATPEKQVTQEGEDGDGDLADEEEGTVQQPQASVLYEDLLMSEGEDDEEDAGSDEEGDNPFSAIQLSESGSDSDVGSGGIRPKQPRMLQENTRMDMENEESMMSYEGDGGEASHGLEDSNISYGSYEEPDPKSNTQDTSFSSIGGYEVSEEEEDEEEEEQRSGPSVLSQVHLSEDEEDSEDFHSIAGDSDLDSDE
# UniProt P40763, sequence (whole entry, looked up): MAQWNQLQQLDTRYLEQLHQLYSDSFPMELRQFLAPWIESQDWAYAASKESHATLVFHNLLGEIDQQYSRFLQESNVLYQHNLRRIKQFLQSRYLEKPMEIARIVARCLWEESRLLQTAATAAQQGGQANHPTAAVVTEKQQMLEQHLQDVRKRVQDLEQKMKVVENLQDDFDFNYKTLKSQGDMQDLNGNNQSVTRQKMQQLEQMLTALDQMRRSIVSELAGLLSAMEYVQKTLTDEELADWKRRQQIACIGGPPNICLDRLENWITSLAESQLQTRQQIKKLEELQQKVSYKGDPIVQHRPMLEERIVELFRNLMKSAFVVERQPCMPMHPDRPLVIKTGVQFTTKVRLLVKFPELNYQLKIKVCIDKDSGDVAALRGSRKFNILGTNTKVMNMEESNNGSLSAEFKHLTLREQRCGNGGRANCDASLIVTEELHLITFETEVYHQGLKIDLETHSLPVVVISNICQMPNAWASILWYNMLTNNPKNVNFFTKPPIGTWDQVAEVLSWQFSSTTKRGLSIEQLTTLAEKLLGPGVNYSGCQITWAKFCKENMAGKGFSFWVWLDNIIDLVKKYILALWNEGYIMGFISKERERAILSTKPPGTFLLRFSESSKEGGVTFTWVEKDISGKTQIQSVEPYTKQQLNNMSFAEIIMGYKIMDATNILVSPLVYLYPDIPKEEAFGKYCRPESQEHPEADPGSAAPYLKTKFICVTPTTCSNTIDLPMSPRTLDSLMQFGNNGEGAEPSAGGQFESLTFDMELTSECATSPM
# UniProt Q9HAZ1, sequence (whole entry, looked up): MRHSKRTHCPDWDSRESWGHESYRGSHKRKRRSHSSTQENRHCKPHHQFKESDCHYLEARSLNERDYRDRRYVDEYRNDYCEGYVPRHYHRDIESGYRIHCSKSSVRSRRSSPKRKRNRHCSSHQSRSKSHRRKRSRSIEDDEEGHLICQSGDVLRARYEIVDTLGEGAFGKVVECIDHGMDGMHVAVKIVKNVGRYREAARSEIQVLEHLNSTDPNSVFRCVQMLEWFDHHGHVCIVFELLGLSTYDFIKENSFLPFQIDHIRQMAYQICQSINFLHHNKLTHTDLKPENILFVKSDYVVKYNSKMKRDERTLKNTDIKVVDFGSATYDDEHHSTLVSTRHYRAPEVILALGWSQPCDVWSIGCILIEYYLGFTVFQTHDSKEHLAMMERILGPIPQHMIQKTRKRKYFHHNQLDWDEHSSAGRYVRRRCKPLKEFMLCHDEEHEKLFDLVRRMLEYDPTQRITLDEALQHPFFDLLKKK
# UniProt P25100, sequence (whole entry, looked up): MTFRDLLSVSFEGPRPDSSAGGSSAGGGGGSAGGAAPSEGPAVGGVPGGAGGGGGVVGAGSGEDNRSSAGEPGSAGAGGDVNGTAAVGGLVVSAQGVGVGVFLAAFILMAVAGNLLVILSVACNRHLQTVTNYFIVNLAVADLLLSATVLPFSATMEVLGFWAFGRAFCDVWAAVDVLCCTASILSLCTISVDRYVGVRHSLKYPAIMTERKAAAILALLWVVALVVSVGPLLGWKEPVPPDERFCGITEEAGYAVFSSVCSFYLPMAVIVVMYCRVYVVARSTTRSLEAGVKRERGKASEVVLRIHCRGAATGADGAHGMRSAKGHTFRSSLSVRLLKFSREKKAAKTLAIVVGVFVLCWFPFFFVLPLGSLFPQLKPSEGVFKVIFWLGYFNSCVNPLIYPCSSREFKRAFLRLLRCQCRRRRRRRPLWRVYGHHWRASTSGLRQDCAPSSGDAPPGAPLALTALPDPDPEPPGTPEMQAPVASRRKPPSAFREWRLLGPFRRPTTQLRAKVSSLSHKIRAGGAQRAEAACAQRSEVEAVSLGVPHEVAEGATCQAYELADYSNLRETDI
# UniProt Q0P543, sequence (whole entry, looked up): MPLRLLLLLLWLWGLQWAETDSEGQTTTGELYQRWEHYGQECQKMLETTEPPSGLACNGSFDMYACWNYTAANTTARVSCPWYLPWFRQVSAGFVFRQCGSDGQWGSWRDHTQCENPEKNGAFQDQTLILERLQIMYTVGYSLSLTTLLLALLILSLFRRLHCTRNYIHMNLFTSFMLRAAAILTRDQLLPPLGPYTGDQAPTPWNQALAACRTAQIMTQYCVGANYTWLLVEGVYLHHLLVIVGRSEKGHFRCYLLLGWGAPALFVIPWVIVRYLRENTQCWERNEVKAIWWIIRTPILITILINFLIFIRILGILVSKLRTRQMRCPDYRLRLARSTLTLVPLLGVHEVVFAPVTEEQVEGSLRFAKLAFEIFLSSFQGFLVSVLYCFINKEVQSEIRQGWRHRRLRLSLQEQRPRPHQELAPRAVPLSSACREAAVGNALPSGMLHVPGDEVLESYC
# UniProt P34972, sequence (whole entry, looked up): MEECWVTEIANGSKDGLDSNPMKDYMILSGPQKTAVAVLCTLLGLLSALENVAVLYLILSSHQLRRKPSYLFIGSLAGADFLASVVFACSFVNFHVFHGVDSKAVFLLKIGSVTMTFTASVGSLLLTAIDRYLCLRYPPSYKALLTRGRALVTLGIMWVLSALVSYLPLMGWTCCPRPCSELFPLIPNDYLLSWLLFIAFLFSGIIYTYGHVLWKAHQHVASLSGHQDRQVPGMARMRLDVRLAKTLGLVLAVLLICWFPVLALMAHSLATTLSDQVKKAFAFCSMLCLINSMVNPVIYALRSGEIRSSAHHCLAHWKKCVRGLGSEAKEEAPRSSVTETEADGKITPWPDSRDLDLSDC
# UniProt P36894, sequence (whole entry, looked up): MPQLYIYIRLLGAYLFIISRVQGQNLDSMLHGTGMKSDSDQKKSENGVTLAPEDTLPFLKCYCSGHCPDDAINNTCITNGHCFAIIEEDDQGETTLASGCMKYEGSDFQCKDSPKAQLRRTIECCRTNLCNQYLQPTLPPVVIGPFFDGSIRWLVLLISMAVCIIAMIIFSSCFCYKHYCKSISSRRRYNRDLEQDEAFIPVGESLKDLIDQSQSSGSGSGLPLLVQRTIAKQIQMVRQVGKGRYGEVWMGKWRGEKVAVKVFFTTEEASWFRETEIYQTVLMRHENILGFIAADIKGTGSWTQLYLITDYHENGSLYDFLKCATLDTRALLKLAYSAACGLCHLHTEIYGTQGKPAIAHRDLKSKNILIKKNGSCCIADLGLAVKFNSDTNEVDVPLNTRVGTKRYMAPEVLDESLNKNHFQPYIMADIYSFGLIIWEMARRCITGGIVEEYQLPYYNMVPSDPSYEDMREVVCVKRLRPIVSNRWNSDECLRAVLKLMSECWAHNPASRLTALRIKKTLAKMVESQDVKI
SMILES,target,assay,test system,conditions,measurement,result
[2H]c1c([2H])c([C@]2([2H])CCCN2C(=O)C(C)(C)Oc2ccc3cn[nH]c3c2)c([2H])c([2H])c1C([2H])([2H])[2H],"DAPK1 (Homo sapiens, UniProt P53355)","binding, competition with immobilised ligand",,1 µM,remaining binding,69%
Cc1nn(C)cc1-c1nc2c(N3CCN(Cc4ccc(Cl)cc4)CC3)c(Cl)cnc2[nH]1,"PIK3CD (Homo sapiens, UniProt O00329)","binding, competition with immobilised ligand",,1 µM,remaining binding,81%
CCCCCc1ccccc1C/C=C\C/C=C\C/C=C\CCCC(=O)N[C@H](C)CO,"CNR2 (Homo sapiens, UniProt P34972)","β-arrestin recruitment, agonist",,,Emax,51%
CN1CCC[C@H]1c1cccnc1,"ADRA1D (Homo sapiens, UniProt P25100)",ligand displacement,,50 µM,inhibition,-19.2%
CCN(CC)CCCC[C@H](NC(=O)[C@H](CC(C)C)NC(=O)[C@H](C)NC(=O)[C@H](Cc1ccccc1)NC(=O)c1ccc(C(C)(C)C)cc1)C(=O)N[C@@H](CO)C(=O)OC,"Transcription initiation factor TFIID subunit 1, BD1 (TAF1, Homo sapiens, UniProt P21675)","thermal stability, DSF",,25 µM,ΔTm,0.44 °C
C#Cc1n[nH]c2c(-c3cn(C(C)c4ccccn4)c(=O)[nH]c3=O)cc(F)cc12 (centres unmarked),"CLK4 (Homo sapiens, UniProt Q9HAZ1)","enzyme activity, inhibitor",,1 µM,inhibition,11.2%
CC[C@H](C)[C@H](NC(=O)[C@H](CO)NC(=O)[C@H](Cc1ccc(O)cc1)NC(=O)[C@H](CC(=O)O)NC(=O)[C@H](CO)NC(=O)[C@@H](NC(=O)[C@H](Cc1ccccc1)NC(=O)[C@@H](NC(=O)CNC(=O)[C@H](CCC(=O)O)NC(=O)[C@H](C)NC(=O)[C@@H](N)Cc1ccc(O)cc1)[C@@H](C)O)[C@@H](C)CC)C(=O)N[C@@H](C)C(=O)N[C@@H](CCSC)C(=O)N[C@@H](CC(=O)O)C(=O)N[C@@H](CCCCN)C(=O)N[C@H](C(=O)N[C@@H](Cc1c[nH]cn1)C(=O)N[C@@H](CCC(N)=O)C(=O)N[C@@H](CCC(N)=O)C(=O)N[C@@H](CC(=O)O)C(=O)N[C@@H](Cc1ccccc1)C(=O)N[C@H](C(=O)N[C@@H](CC(N)=O)C(=O)N[C@@H](Cc1c[nH]c2ccccc12)C(=O)N[C@@H](CC(C)C)C(=O)N[C@@H](CC(C)C)C(=O)N[C@@H](C)C(=O)N[C@@H](CCC(N)=O)C(=O)N[C@@H](CCCCN)C(=O)NCC(=O)N[C@@H](CCCCN)C(=O)N[C@@H](CCCCN)C(=O)N[C@@H](CC(N)=O)C(=O)N[C@@H](CC(=O)O)C(=O)N[C@@H](Cc1c[nH]c2ccccc12)C(=O)N[C@@H](CCCCN)C(=O)N[C@@H](Cc1c[nH]cn1)C(=O)N[C@@H](CC(N)=O)C(=O)N[C@H](C(=O)N[C@H](C(=O)N[C@@H](CCC(N)=O)C(=O)O)[C@@H](C)O)[C@@H](C)CC)C(C)C)[C@@H](C)CC,"Gastric inhibitory polypeptide receptor (Mus musculus, UniProt Q0P543)","β-arrestin recruitment, agonist",,,Emax,96%
COc1ncccc1-c1cnn2ccc(N3CCN(C(=O)OC(C)C)CC3)nc12,"BMPR1A (Homo sapiens, UniProt P36894)","binding, competition with immobilised ligand",,1 µM,remaining binding,93%
CC(C)CC(=O)OC[C@H]1O[C@@](C#N)(c2ccc3c(N)ncnn23)[C@H](O)[C@@H]1O,"Cacna1b (Rattus norvegicus, UniProt Q02294)",cell-free assay,,20 µM,inhibition,1%
Oc1cccc(N2C[C@H]3CC[C@@H](C2)N3CCCc2ccccc2)c1,"OPRM1 (Homo sapiens, UniProt P35372)","cAMP, agonist",OPRM1,,Emax,99.7%
NC(=O)CC[C@H](NC(=O)[C@@H]1CC[C@@H]2CCN(C(=O)CCCCCC#Cc3cccc4c3CN(C3CCC(=O)NC3=O)C4=O)C[C@H](NC(=O)c3cc4cc(C(=O)P(=O)(O)O)ccc4[nH]3)C(=O)N21)C(=O)NC(c1ccccc1)c1ccccc1 (some centres unmarked),"STAT3 (Homo sapiens, UniProt P40763)","protein level, degrader, luciferase",HeLa,,Dmax,86 to 88%
Nc1ncc(-c2nc(N3CCOCC3)nc(N3CCOCC3)n2)c(C(F)F)n1,"ACVR2B (Homo sapiens, UniProt Q13705)","binding, competition with immobilised ligand",,10 µM,remaining binding,100%
CC12CC3CC(C)(C1)CC(N)(C3)C2,"Potassium/sodium hyperpolarization-activated cyclic nucleotide-gated channel 1 (Homo sapiens, UniProt O60741)","ion current, inhibitor",,30 µM,inhibition,15.1%
c1cncc([C@@H]2CCCN2)c1,"CHRM1 (Homo sapiens, UniProt P11229)",cell-free assay,,50 µM,inhibition,-0.55%
